Results from different studies.
Lines come from different studies, so protocols differ. ± marks the error that the study gave.
Method: steady-state kinetics
B1: CYP6A8 (Drosophila melanogaster, UniProt Q27593); chain MALTYILFQVAVALLAILTYYIHRKLTYFKRRGIPFVAPHLIRGNMEELQKTKNIHEIFQDHYNKFRESKAPFVGFFFFQSPAAFVIDLELAKQILIKDFSNFSNKGIFYNEKDDPISAHLFNLDGAQWRLLRNKLSSTFTSGKMKLMYPTVVSVANEFMTVMHEKVPKNSVLEIRDLVARFTVDVIGTCAFGIQCNSLRDEKAEFLYFGKRSLVDKRHGTLLNGFMRSYPKLARKLGMVRTAPHIQEFYSRIVTETVAVREKEHIKRNDFMDMLIELKNQKEMTLENGDVVRGLTMEEVLAQAFVFFIAGFETSSSTMGFALYELAKNPDIQDKVRAEVEEVIEQHDQNFTYECTKDLKYLNQVLDETLRLYTIVPNLDRMAAKRYVVPGHPNFVIEAGQSVIIPSSAIHHDPSIYPEPFEFRPERFSPEESAGRPSVAWLPFGDGPRNCIGLRFGQMQARIGLALLIRNFKFSTCSKTPNPLVYDPKSFVLGVKDGIYLKVETV
B2: enzyme (Mortierella alpina, UniProt U5Y3C6); chain MAPPNTIDAGLTQRHISTSAPNSAKPAFERNYQLPEFTIKEIRECIPAHCFERSGLRGLCHVAIDLTWASLLFLAATQIDKFENPLIRYLAWPVYWIMQGIVCTGVWVLAHECGHQSFSTSKTLNNTVGWILHSMLLVPYHSWRISHSKHHKATGHMTKDQVFVPKTRSQVGLPPKENAAAAVQEEDMSVHLDEEAPIVTLFWMVIQFLFGWPAYLIMNASGQDYGRWTSHFHTYSPIFEPRNFFDIIISDLGVLAALGALIYASMQLSLLTVTKYYIVPYLFVNFWLVLITFLQHTDPKLPHYREGAWNFQRGALCTVDRSFGKFLDHMFHGIVHTHVAHHLFSQMPFYHAEEATYHLKKLLGEYYVYDPSPIVVAVWRSFRECRFVEDQGDVVFFKK
B3: enzyme (Phocaeicola vulgatus, UniProt A6KWY2); chain MNYNEIGKTGMRVSNLSFGASSLGGVFHDIREAEGIKAVYTAVENGMNFIDVSPYYGHYKAETVLGKALKEIPRDKYYLSTKVGRYGKDGVNTWDYSGKRATESVYESLDRLHIEYIDLINVHDVEFSDMNQVVNETLPALVELKKKGIVGHVGITDLQLENLKWIIDHSEPGTVESVLNFCHYCLNDEKLTDYLDYFESKNIGIINASPLSMGLLSQRGVPAWHPAPQSLVEACRKAVQHCLSKNYPIEKLAIQYSVSNPRIATTLFSSANPDNVLKNITYAEEPIDWNLVKEVQEIIGKQMRISWANS
B4: ycjR (Escherichia coli, UniProt P76044); chain MKIGTQNQAFFPENILEKFRYIKEMGFDGFEIDGKLLVNNIEEVKAAIKETGLPVTTACGGYDGWIGDFIEERRLNGLKQIERILEALAEVGGKGIVVPAAWGMFTFRLPPMTSPRSLDGDRKMVSDSLRVLEQVAARTGTVVYLEPLNRYQDHMINTLADARRYIVENDLKHVQIIGDFYHMNIEEDNLAQALHDNRDLLGHVHIADNHRYQPGSGTLDFHALFEQLRADNYQGYVVYEGRIRAEDPAQAYRDSLAWLRTC
B5: dxs (Escherichia coli, UniProt P77488); chain MSFDIAKYPTLALVDSTQELRLLPKESLPKLCDELRRYLLDSVSRSSGHFASGLGTVELTVALHYVYNTPFDQLIWDVGHQAYPHKILTGRRDKIGTIRQKGGLHPFPWRGESEYDVLSVGHSSTSISAGIGIAVAAEKEGKNRRTVCVIGDGAITAGMAFEAMNHAGDIRPDMLVILNDNEMSISENVGALNNHLAQLLSGKLYSSLREGGKKVFSGVPPIKELLKRTEEHIKGMVVPGTLFEELGFNYIGPVDGHDVLGLITTLKNMRDLKGPQFLHIMTKKGRGYEPAEKDPITFHAVPKFDPSSGCLPKSSGGLPSYSKIFGDWLCETAAKDNKLMAITPAMREGSGMVEFSRKFPDRYFDVAIAEQHAVTFAAGLAIGGYKPIVAIYSTFLQRAYDQVLHDVAIQKLPVLFAIDRAGIVGADGQTHQGAFDLSYLRCIPEMVIMTPSDENECRQMLYTGYHYNDGPSAVRYPRGNAVGVELTPLEKLPIGKGIVKRRGEKLAILNFGTLMPEAAKVAESLNATLVDMRFVKPLDEALILEMAASHEALVTVEENAIMGGAGSGVNEVLMAHRKPVPVLNIGLPDFFIPQGTQEEMRAELGLDAAGMEAKIKAWLA
B6: protein (Cecembia lonarensis, UniProt K1KV82); chain QENKEKDRTPSSKHLTDNILQPKRSSDFMAFKYEYSTVDLYREFSESIMDKARSEVEILESVNRQGRYKPNVESLKLHEVPEWFEDAKLGIFLDWGPWSVPGYAPLKGAEASTGGSYPDWYEFLMDNLYKEYHDEVWGADFRRDDFLPLLTGENFNSEEYMLLAVNSGAKYFVPFTKHHAGWTMWESEFTKRNAVEMGPGRDIYKELIEAGKKYDMKMGFYFSVSEWEYPVIVDQNLSQWDPVKNLAIFQDALGQIPRATPLASYFPALHDRMISGKIPVKDYFADYMIPSFKEAVDKYDPDLVWYDGGWGSPVSISRTMETSAYFYNQAEGKKDVVINNRAGSSLSEDDLIKVRDLMDSGKRDEAMKIYLSGQQLGDYGTPEFTIGDVDIQSKWEVCRSISPAFGYNWQDDEASSLSGEELIKLFVDIVANNGNLLLVISPDGSGKLPDIQKDRLLELGDWMKVNAESIHNTRPWKVQKENDKFFTKSKDGKSLFVHCTNWPGENLIINTPIEEGIKGIKLLGSDINLQFTKASNGNLEIPIPKDFQNNPSLISKYVWTFKIDLN
B7: protein (Shewanella denitrificans, UniProt Q12KT8); chain MIHKLADVQSQNIGDNTKVWQFCVILAGAVIGRNCNICANSLIENDVVIGDNVTIKSGVQIWDGIHIQDDVFIGPNVTFTNDKQPRSKIYPDEYLKTIVKKGASIGANSTILPGILIGENAMVGAGAVITKNVPDNAIVIGNPGRITGYVEANTGVIMPSNNFELKLQMSKVKGVSLHKFHLVNDLRGNLSVGEFEKDIPFTPKRYFTVFGVPNKEVRGEHAHKECKQFLICVSGNCSVLVDDGENREEYVLDSIDKGIYLPPMTWGVQYKYSKDAVLLVFASHYYDSDDYIRDYSTFKQMRQN
B8: pdh1 (Macropsalliota meleagris, UniProt Q3L245); chain AITYQHPDDLPSGVDYDFIVAGGGTAGLVVASRLSENSNWKVLVIEAGPSNKDAFVTRVPGLASTLGAGSPIDWNYTTIPQDGLDGRSLDYPRAKILGGCSTHNGMVYTRGSKDDWNSWAGIIGDQGLGWDSILPAIKKAEKFTQDFTDQSVKGHIDPSVHGFDGKLSVSAAYSNISFNDLLFETTKELNAEFPFKLDMNDGKPIGLGWTQYTIDNHAERSSSATSYLESTGDNVHVLVNTLVTRVLSASGNGTDFRKVEFAVDANSPKKQLEAKKEVIVAGGVIASPQILMNSGIGERKVLQAVGIDTLIDNPSVGKNLSDQGATSVMFDTTLPSTDFDVDAALTEWTNSHTGPLARGARLNHLTFVRLPDDKLNGQDPSSGKNSPHIEFQFAQITPQVPTLGVPKQAPLPAANSYRLLLQLAVVNLYSISRGSISLSDNNPFTYPLIDLNMFKEDIDIAILREGIRSAGRMFSSKAFKNSVNKFVYPPADATSDEDLDAFLRSSTFSYVHGVGTLSMSPKGASWGVVNPDFKVKGTSGLRVVDASVIPHAPAAHTQLPVYAFAEYASALIAKSYN
B9: GTPBP3 P257H (Homo sapiens, UniProt Q969Y2); chain TRRSSGAPAPGSGATIFALSSGQGRCGIAVIRTSGPASGHALRILTAPRDLPLARHASLRLLSDPRSGEPLDRALVLWFPGPQSFTGEDCVEFHVHGGPAVVSGVLQALGSVPGLRPAEAGEFTRRAFANGKLNLTEVEGLADLIHAETEAQRRQALRQLDGELGHLCRGWAETLTKALAHVEAYIDFGEDDNLEEGVLEQADIEVRALQVALGAHLRDARRGQRLRSGVHVVVTGHPNAGKSSLVNLLSRKPVSIVSPEPGTTRDVLETPVDLAGFPVLLSDTAGLREGVGPVEQEGVRRARERLEQADLILAMLDASDLASPSSCNFLATVVASVGAQSPSDSSQRLLLVLNKSDLLSPEGPGPGPDLPPHLLLSCLTGEGLDGLLEALRKELAAVCGDPSTDPPLLTRARHQHHLQGCLDALGHYKQSKDLALAAEALRVARGHLTRLTGGGGTEEILDIIFQDFCVGK
Chain of UniProt Q9HXU0 (whole entry, looked up): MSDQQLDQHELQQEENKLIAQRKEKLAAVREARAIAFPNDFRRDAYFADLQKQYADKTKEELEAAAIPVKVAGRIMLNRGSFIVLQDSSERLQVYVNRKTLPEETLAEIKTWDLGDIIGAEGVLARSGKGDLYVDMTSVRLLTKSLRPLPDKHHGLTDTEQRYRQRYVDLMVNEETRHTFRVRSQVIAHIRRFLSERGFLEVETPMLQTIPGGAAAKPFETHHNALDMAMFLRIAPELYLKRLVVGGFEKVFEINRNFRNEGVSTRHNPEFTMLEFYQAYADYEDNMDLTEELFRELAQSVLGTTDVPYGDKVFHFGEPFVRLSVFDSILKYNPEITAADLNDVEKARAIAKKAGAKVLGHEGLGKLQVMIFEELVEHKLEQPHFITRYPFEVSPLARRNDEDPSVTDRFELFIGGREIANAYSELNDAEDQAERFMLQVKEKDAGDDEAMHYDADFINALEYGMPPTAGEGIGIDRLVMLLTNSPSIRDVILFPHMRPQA
Chain of UniProt Q29437 (whole entry, looked up): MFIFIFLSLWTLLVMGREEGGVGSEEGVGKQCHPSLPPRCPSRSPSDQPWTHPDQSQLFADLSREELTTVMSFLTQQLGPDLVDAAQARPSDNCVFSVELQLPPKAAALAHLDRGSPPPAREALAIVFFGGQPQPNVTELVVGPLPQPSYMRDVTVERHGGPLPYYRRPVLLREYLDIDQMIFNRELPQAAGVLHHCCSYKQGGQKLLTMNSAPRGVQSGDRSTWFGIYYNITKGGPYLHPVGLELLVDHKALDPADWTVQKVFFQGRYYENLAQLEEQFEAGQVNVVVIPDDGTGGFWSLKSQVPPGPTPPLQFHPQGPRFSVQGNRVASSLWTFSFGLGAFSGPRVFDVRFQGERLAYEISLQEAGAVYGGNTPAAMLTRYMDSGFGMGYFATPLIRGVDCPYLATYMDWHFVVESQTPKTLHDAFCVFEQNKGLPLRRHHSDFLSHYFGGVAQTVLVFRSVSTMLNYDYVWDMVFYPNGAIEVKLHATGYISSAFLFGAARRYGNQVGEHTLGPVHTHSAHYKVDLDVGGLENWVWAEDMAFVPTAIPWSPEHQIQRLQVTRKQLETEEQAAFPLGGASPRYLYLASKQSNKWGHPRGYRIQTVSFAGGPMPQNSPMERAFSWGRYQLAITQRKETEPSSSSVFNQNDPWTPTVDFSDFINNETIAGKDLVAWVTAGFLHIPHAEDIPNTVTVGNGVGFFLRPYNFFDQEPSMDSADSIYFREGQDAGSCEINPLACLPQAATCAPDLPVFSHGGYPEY

Substance	substrate	system	conditions	kcat/Km [M⁻¹ s⁻¹]
B1 (CYP6A8)	CCCCCCCCCCCC(=O)O	DLPC	pH 7.4, 37 °C, total hydroxylation, added: P450 reductase, NADPH	63.3 ± 15
enzyme (Pseudomonas aeruginosa, UniProt Q9HXU0)	Nc1ncnc2c1ncn2[C@@H]1O[C@H](COP(=O)(O)OP(=O)(O)OP(=O)(O)O)[C@@H](O)[C@H]1O		pH 7.5, 37 °C, apparent	36000
B2 (enzyme)	CCCCCC/C=C\CCCCCCCC(=O)SCCNC(=O)CCNC(=O)[C@H](O)C(C)(C)COP(=O)(O)OP(=O)(O)OC[C@H]1O[C@@H](n2cnc3c(N)ncnc32)[C@H](O)[C@@H]1OP(=O)(O)O		pH 7.5, 28 °C	1500
B3 (enzyme)	NC(=O)c1ccc[n+]([C@@H]2O[C@H](COP(=O)(O)OP(=O)(O)OC[C@H]3O[C@@H](n4cnc5c(N)ncnc54)[C@H](OP(=O)(O)O)[C@@H]3O)[C@@H](O)[C@H]2O)c1		pH 8, 30 °C, cofactor varied	8e+06 ± 400000
B4 (ycjR)	CO[C@@H]1O[C@H](CO)[C@@H](O)C(=O)[C@H]1O		pH 8, 30 °C, added: MnCl2 0.5 mM, NADH 0.3 mM	130 ± 30
Plasma amine oxidase (Bos taurus, UniProt Q29437)	COc1ccc2cc(CN)ccc2c1		pH 7.2, 30 °C	1510
B5 (dxs)	O=C(O)C(=O)CO		pH 6.8, 37 °C	520 ± 40
B6 (protein)	C[C@@H]1O[C@@H](Oc2ccc([N+](=O)[O-])cc2)[C@@H](O)[C@H](O)[C@H]1O		pH 5.5, 35 °C	12200 ± 700
protein (Sinorhizobium meliloti, UniProt Q92T34)	NC(=O)C1=CN([C@@H]2O[C@H](COP(=O)(O)OP(=O)(O)OC[C@H]3O[C@@H](n4cnc5c(N)ncnc54)[C@H](OP(=O)(O)O)[C@@H]3O)[C@@H](O)[C@H]2O)C=CC1		pH 7.5, 25 °C, NaCl 150 mM, cofactor varied, added: hydroxypyruvate 66.7 mM	371000 ± 59000
B7 (protein)	Cc1cn([C@H]2C[C@H](O)[C@@H](COP(=O)(O)OP(=O)(O)O[C@H]3O[C@H](C)[C@H](O)[C@H](N)[C@H]3O)O2)c(=O)[nH]c1=O		pH 8.5, added: acetyl-CoA 2 mM	98000
AphC (Rhodococcus jostii, UniProt Q0S9X1)	CCCc1ccc(O)c(O)c1		pH 8, 25 °C, apparent, added: O2	920000
B8 (pdh1)	CN(C)c1ccc2nc3ccc(N(C)C)c([N+](=O)[O-])c3[s+]c2c1		pH 7.5, 22 °C, apparent	2500
NahK (Pseudomonas putida, UniProt Q1XGK3)	O=C(O)C/C=C/C(=O)C(=O)O		pH 7.4, 25 °C, sodium phosphate 20 mM, added: MgCl2 5 mM	5e+06
B9 (GTPBP3 P257H)	Nc1nc2c(ncn2[C@@H]2O[C@H](COP(=O)(O)OP(=O)(O)OP(=O)(O)O)[C@@H](O)[C@H]2O)c(=O)[nH]1		pH 8, 37 °C, KCl 300 mM	80.2
